Published values from different studies.
Lines come from different studies, so protocols differ. ± marks the error that the study gave.
Cell line: SH-SY5Y

| Compound | assay | conditions | scale | viability |
| --- | --- | --- | --- | --- |
| O=c1c(NCc2ccccc2)c(NC2CCN(Cc3ccccc3)CC2)c1=O | MTT | 6.25 µM, 24 h |  | 123.6 ± 0.43% |
| CC(C)C[C@H](NC(=O)[C@H](CCCCN)NC(=O)[C@H](CCC(N)=O)NC(=O)[C@H](Cc1c[nH]cn1)NC(=O)C[C@@H]1NC(=O)[C@H](CCCCN)NC1=O)C(=O)N[C@H](C(=O)NCCCC[C@@H]1NC(=O)[C@H](CC(=O)N[C@@H](Cc2ccccc2)C(=O)N[C@@H](Cc2ccccc2)C(=O)N[C@@H](C)C(=O)N[C@@H](CCC(=O)O)C(=O)N[C@@H](CC(=O)O)C(=O)NCCCC[C@@H]2NC(=O)[C@H](CC(N)=O)NC2=O)NC1=O)C(C)C |  | 10 µM, 24 h | relative to: PBS control | ~99% |
| CC(=O)N[C@H]1[C@H](Oc2ccc(C[C@H](NC(=O)CN)C(=O)N[C@@H](CCC(=O)O)C(=O)N[C@H](C(=O)N[C@@H](Cc3c[nH]cn3)C(=O)N[C@@H](Cc3c[nH]cn3)C(=O)N[C@@H](CCC(N)=O)C(=O)N[C@@H](CCCCN)C(=O)N[C@@H](CC(C)C)C(=O)N[C@H](C(=O)N[C@@H](Cc3ccccc3)C(=O)N[C@@H](Cc3ccccc3)C(=O)N[C@@H](C)C(N)=O)C(C)C)C(C)C)cc2)O[C@H](CO)[C@H](O)[C@@H]1O | CCK-8 | concentration not given, 24 h |  | not toxic |
| FC(F)(F)c1ccc(Nc2c3c(nc4ccccc24)CCCC3)cc1 |  | 50 µM, 1 h pretreatment, added: H2O2 |  | 47.6 ± 1.27% |
| COc1ccc(CNc2c(NC3CCN(Cc4ccccc4)CC3)c(=O)c2=O)cc1 | MTT | 12.5 µM, 24 h |  | 100.6 ± 0.73% |
| O=C1CCCC2=C1C(c1c[nH]c3ccccc13)n1c(sc(=Cc3c[nH]c4ccccc34)c1=O)=N2 (stereo not drawn) | cell growth or viability, MTT | 1 µM |  | 97.7% |
| Cc1nc(-c2ccc(Cl)cc2)nc2sc3c(=O)n(CCN4CCOCC4)cnc3c12 |  | 50 µM, 24 h |  | 94.8 ± 0.49% |
| O=c1c(Nc2ccc(O)cc2)c(NC2CCN(Cc3ccccc3)CC2)c1=O | MTT | 6.25 µM, 24 h |  | 102 ± 1.49% |
| O=c1oc2c(CNCCc3cccc(F)c3)c(O)ccc2c2c1CCC2 |  | 50 µM, 24 h |  | 98 ± 0.34% |
| CC(C)C[C@H](NC(=O)[C@H](CCCCN)NC(=O)[C@H](CCC(N)=O)NC(=O)[C@H](Cc1c[nH]cn1)NC(=O)C[C@@H]1NC(=O)[C@H](CCCCN)NC1=O)C(=O)N[C@H](C(=O)N[C@@H](Cc1ccccc1)C(=O)N[C@@H](Cc1ccccc1)C(=O)N[C@@H](C)C(=O)N[C@@H](CCC(=O)O)C(=O)N[C@@H](CC(=O)O)C(N)=O)C(C)C |  | 10 µM, 24 h | relative to: PBS control | ~99% |
| O=c1c(NCCc2ccc(O)cc2)c(NC2CCN(Cc3ccccc3)CC2)c1=O | MTT | 12.5 µM, 24 h |  | 87.3 ± 1.99% |
| COc1ccc([C@@H]2N=NC(NCCc3c[nH]c4ccc(C)cc34)=NC2=O)cc1 |  | 100 µM, 24 h |  | 97.1 ± 0.08% |

Some of these lines once more:
| Compound | assay | conditions | scale | viability |
| --- | --- | --- | --- | --- |
| O=c1oc2c(CNCCc3cccc(F)c3)c(O)ccc2c2c1CCC2 |  | 50 µM, 24 h |  | 98 ± 0.34% |
| O=c1c(NCCc2ccc(O)cc2)c(NC2CCN(Cc3ccccc3)CC2)c1=O | MTT | 12.5 µM, 24 h |  | 87.3 ± 1.99% |
